# Measured values gathered from unrelated publications.
# A part holds a random share of what one study measured.

# Block 1
# Target: RNA binding protein fox-1 homolog 2, RRM domain, GST-SBP tag (RBFOX2, Homo sapiens, UniProt O43251-10, residues 100-194)
# Method: RNA Bind-n-Seq
# Molecule type: RNA
# Matrix: in vitro
# Tested at: 365 nM
# Setting: natural RNA segment, single round, ends assumed
# Baseline: no-protein control
# Direction: higher = stronger binding
# Shared flanks, not repeated: GGGAGUUCUACAGUCCGACGAUC … UGGAAUUCUCGGGUGCCAA
Sequence,RBNS enrichment (R)
CAUAACAUACUGAAACUAUUUAUAUUUUCUUUUUUAAGGAUAUUUAGAAAUUUUGUGUAUUAUAUGGAAAAAGAAAAAAAGCUUAAGUCUGUAGUCUUUAUGAUCCUAAA,0.611
ACCUGCUUCUGUGACUUCGUUCUUUUUGUUUUCAAGGGGUGAAAACCCCCUGUCAGAAGGUACCGUCGCAUAUCCAUGUGAAGCAGACGACUCCCUGCUUGCCGCACACA,0.633
AAUUUGUCUCCUAUUCUUAAGUACUUCUGCAAGGUAUUAGAUGCUGCUCCUUACCAAAAAUCAGUCUUCUAGCAAAUAAAAAUAACUUAGAGCAUUAUUUAUUUAAAGAA,0.539
CCUCCCCCUUGCCUUUAACCUCUAGUUUAGUCUUUUCCUCCAGGCAUGAAAAAUAUGACUAACCUGUGGUGUGUCCAUUCUUCCUUAUAGGAAUUUCCUGAGUUUGCAGG,2.91
UGGUAAUAUUCUAUCCUUAUGACACUAUUGCAACCAAAUUGGCUUUACCAUCUUGGCUUUAGUAGGUAUAGAAGAAAGUGGAUUACCAUCUUUAUUUUGUAAUGUGUUAA,0.746
AAUAUGUCACAUCUGAGUUCAAAAAAAUUACUUUGAAUACCUUAAUAUUUGCUGCAUUUUUUUCCGUAUAUAUAACAUGUCUUCUUUCAGAAUGGGAAUAUAUGUGUGCC,0.554
UUAAGGUUUAAUAUGCAUUCAGAUUACUUUUACUGAAUAGUACACCAUAAAGCUUUUGUUAUAUAUUAAAUGUAAACUGAAAGGAAUGUAAACAUAUGUAUUGUUAAUUA,0.497
GUGGUUUGGGCAAAUUUCUGCAGGUCCCUUCCCCCCAACCCCGUCUCUGAUGAAUAAAGACCAUGAGUGGAGUUCCUUAACUCAGGCUUUUGUGAGUAGUUUACUAAGGA,0.544

# Block 2
# Target: Histone acetyltransferase KAT6A, winged helix 2, GST fusion (KAT6A, Homo sapiens, UniProt Q92794, residues 85-181)
# Method: protein binding microarray
# Molecule type: double-stranded DNA, one strand shown
# Matrix: in vitro
# Tested at: not given
# Setting: 8-mer, flanks averaged, mean of 2 arrays, mostly near background
# Baseline: not given
# Direction: higher = stronger binding
# Target sequence (chain): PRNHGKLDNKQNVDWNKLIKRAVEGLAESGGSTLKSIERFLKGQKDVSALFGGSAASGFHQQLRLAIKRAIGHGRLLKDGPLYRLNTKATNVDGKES
Sequence,E-score
AATATAAG,0.185
ATGTCACG,-0.128
ACTCGTTA,-0.168
GGCCCGCA,0.115
GGAATGCA,0.00671
GCTCAACA,0.0778
ACAACTGG,-0.0516
CTACCCGA,0.0774
ACTGAATA,-0.079
GCTATACC,-0.11
CACCAAAA,0.0567
AAGGGCGA,0.0633
AGGGTCTC,-0.122
AGCCTACG,0.126
GTGCAGGA,0.00205
CGAATGGC,0.107
GAGAATAA,0.025
TAATACGA,-0.0307
AACGTACC,-0.228
CATACTGC,0.0518
CCACCGAC,0.0103

# Block 3
# Target: Sal-like protein 4, full length isoform A (SALL4, Homo sapiens, UniProt Q9UJQ4, residues 1-1053)
# UniProt Q9UJQ4, sequence (whole entry, looked up): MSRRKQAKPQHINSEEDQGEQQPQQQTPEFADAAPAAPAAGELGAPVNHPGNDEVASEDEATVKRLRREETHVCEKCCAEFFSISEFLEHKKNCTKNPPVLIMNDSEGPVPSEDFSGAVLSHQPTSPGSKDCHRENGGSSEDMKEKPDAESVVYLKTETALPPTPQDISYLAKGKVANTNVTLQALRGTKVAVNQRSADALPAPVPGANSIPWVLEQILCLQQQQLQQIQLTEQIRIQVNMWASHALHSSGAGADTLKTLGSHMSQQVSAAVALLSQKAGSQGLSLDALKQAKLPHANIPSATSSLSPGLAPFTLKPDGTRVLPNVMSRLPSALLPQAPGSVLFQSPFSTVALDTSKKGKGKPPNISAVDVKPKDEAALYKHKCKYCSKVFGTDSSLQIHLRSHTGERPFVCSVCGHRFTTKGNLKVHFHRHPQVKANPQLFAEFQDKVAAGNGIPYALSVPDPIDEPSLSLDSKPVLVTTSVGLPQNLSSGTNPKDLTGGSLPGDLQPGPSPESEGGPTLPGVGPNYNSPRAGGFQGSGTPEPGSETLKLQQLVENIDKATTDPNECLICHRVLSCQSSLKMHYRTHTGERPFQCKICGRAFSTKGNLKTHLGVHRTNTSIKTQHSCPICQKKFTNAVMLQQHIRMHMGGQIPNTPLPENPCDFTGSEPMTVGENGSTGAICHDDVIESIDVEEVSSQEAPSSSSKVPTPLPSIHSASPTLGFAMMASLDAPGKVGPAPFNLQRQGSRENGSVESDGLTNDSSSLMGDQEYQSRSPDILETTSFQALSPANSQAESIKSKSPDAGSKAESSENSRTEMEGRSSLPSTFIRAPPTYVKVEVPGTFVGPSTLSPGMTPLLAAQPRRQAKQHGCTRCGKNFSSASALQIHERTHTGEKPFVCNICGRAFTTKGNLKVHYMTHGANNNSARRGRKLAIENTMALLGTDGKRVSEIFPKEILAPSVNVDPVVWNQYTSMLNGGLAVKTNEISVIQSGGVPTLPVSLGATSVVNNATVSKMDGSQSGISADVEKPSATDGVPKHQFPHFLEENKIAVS
# Method: universal PBM
# Molecule type: double-stranded DNA, one strand shown
# Matrix: in vitro
# Tested at: 600 nM
# Setting: 8-mer, flanks averaged, mean of replicates
# Direction: higher = stronger binding
Sequence,E-score
ATGATAAG,0.272
CATAACCG,0.157
CAGACTGA,-0.1
TACTTGGA,0.171
GACGCGTC,-0.323
AACTTAGA,0.0368
CCGGTCGC,-0.343
TCAGACGA,0.0275
AAGCCTCA,-0.225
CTTATTAC,0.303
CTCGACTC,-0.17
ACTCGTTG,0.102
GGGAATCA,-0.148
CCACACCC,-0.173
CGCTCACG,-0.309
CCTACGCC,-0.279
AGCACCCT,-0.293
ACACATGC,-0.0773
GCCTACAA,0.0125
AGTAGGTC,-0.147
AAAAGAGT,0.031
GGTGTACA,0.0567
CAGACAAG,0.00936

# Block 4
# Target: Ras GTPase-activating protein-binding protein 1, full length (G3BP1, Homo sapiens, UniProt Q13283)
# UniProt Q13283, sequence (whole entry, looked up): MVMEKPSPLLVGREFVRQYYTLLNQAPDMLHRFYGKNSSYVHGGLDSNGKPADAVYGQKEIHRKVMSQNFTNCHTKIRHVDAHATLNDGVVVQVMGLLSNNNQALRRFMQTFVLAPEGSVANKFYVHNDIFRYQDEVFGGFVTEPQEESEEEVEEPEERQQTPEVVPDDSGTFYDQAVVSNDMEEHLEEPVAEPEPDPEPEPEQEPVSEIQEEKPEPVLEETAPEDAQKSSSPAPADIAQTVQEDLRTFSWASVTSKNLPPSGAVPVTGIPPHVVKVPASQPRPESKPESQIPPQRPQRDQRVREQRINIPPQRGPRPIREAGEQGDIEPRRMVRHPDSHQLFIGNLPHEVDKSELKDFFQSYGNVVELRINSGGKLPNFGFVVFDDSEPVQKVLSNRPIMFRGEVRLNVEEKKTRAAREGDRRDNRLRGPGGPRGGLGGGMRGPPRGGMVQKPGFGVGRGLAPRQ
# Method: RNA Bind-n-Seq
# Molecule type: RNA
# Matrix: in vitro
# Tested at: 200 nM
# Setting: whole 134-nt RNA, ends assumed
# Added: 150 mM KCl
# Baseline: input library
# Direction: higher = stronger binding
# Shared flanks, not repeated: GGGAGUUCUACAGUCCGACGAUC … UGGAAUUCUCGGGUGUCAAGG
Sequence,log2 enrichment
AAGUCCUGUGCUACACAUCGUAUGUACCGAAUCGGAAAAAGGAAAAAGGAAAAAGGGAAAGUAUUAUGUUACGCCGUUCGGAUCUGCACU,-1.1
CCUGUGCUACACAUCGUAUGUACCGAAUCGGAAAAAAAGGGAAAAAAAGGGGAAAAAAAGGAAAGUAUUAUGUUACGCCGUUCGGAUCUG,-0.801
CUCAAGUCCUGUGCUACACAUCGUAUGUACCGAAUCGGGUGGGUUUGGGUGGGAAAGUAUUAUGUUACGCCGUUCGGAUCUGCACUUCCA,1.02
CACAGACAACACGCACCCACACAGACACAGAGGGAAGGGGUUGGGAUCGGGACAGGGUGCACAGCAGGGCGGGGUAGGACCCCAGCCCCU,1.81
CUCAAGUCCUGUGCUACACAUCGUAUGUACCGAAUCGGCCGGCCGGGCCGGGGAAAGUAUUAUGUUACGCCGUUCGGAUCUGCACUUCCA,-0.39
CCUCAAGUCCUGUGCUACACAUCGUAUGUACCGAAUCGGGCGGCGGGGCGGGGAAAGUAUUAUGUUACGCCGUUCGGAUCUGCACUUCCA,1.04
UCAAGUCCUGUGCUACACAUCGUAUGUACCGAAUCGGAAAGGAAAAAGGAAAGGAAAGUAUUAUGUUACGCCGUUCGGAUCUGCACUUCC,-1.08
UUGGACUUGGAGCAUCUGCUCAGUGAGUCUCCAGAAGGAAGUCCCUUCCGAGAUAUGGAUGAUGGAAGUGAUUCCCUUGGGGUGGGAUUG,-1.63
UCCUCAAGUCCUGUGCUACACAUCGUAUGUACCGAAUCGGAGGAGGGAGGGGAAAGUAUUAUGUUACGCCGUUCGGAUCUGCACUUCCAG,0.371

# For quick reference, copied from above (block 3):
Sequence,E-score
AACTTAGA,0.0368
AAAAGAGT,0.031
ACTCGTTG,0.102
CCGGTCGC,-0.343
AAGCCTCA,-0.225
GCCTACAA,0.0125
AGTAGGTC,-0.147
